Published values collected from several papers.
Parts stem from different laboratories: compare values within a part only. Positions count from the first letter of the parent shown.

Block 1
Target: CCND1, cyclin fold, Cln2 fusion (human)
Technique: yeast growth competition, sequencing
Sample: yeast
Setting: weak parent motif
Baseline: not given
Reading: higher = stronger binding
Endpoint: normalised enrichment score
Starting sequence: ORC1 docking peptide (human); PRARKRLELGNLG; partner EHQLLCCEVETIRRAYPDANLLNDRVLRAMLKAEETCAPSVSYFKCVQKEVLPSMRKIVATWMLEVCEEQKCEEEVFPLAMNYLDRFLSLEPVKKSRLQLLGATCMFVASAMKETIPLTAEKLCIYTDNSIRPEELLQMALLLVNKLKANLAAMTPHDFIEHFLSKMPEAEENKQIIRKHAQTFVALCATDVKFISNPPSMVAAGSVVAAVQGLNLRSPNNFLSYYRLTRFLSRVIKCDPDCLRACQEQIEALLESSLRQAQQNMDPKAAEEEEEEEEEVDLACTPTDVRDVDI
ARARKRLELGNLG [P1A]: 0.172
PRARKRLELGNLW [G13W]: -0.237
PRARKRLDLGNLG [E8D]: 0.626
PRHRKRLELGNLG [A3H]: 0.169
PRARKRLELGNHG [L12H]: 0.136
PRARKDLELGNLG [R6D]: 0.0538
PRARKRLELDNLG [G10D]: 0.604
PRSRKRLELGNLG [A3S]: 0.255
PRARKRKELGNLG [L7K]: 0.226
PRARKRLELGPLG [N11P]: 0.121
PRARKRSELGNLG [L7S]: -0.341
PRARKRLELGNLF [G13F]: 0.344
PRARKRLEQGNLG [L9Q]: -0.0334
PRARKRLELGFLG [N11F]: 0.245
PRARKRTELGNLG [L7T]: -0.767
PRARVRLELGNLG [K5V]: -0.359
PGARKRLELGNLG [R2G]: -0.23
PRARKRLESGNLG [L9S]: 0.25
PMARKRLELGNLG [R2M]: 0.331
CRARKRLELGNLG [P1C]: 0.776
PRARKRLELINLG [G10I]: 0.0623
PRARKRYELGNLG [L7Y]: -0.275
PRARKRGELGNLG [L7G]: -0.365
PRARKRLELLNLG [G10L]: 0.767

Block 2
Target: Histone acetyltransferase KAT6A, both winged helices, GST fusion (KAT6A, Homo sapiens, UniProt Q92794, residues 1-181)
Technique: protein binding microarray
Molecule type: double-stranded DNA, one strand shown
Sample: in vitro
Concentration: not given
Setting: 8-mer, flanks averaged, mean of 2 arrays, mostly near background
Baseline: not given
Reading: higher = stronger binding
Endpoint: E-score
Construct (chain): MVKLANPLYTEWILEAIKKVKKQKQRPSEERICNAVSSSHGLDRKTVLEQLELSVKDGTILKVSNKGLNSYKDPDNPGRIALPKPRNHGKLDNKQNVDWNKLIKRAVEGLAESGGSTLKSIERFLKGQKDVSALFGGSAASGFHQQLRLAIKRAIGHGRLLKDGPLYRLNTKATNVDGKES
ATTTGGTA: -0.076
GTCTCGCA: -0.0497
CCAAAGCC: -0.123
TAATCAAA: -0.00885
GGATCGAC: -0.0871
ACGGCGCA: 0.298
ACAAATTC: -0.0899
GGCGAGCA: 0.0817
CACGCGCA: 0.305
ACTGTGTA: -0.0359
GGTTAACA: 0.137
GATATACA: 0.039
ATGTACTC: -0.00844
CTTCTGTA: -0.1
CACGCCGA: 0.209
CTATGCCA: -0.199
ATTGGCTC: -0.122
AAGGACTC: -0.0124
AGGACGTG: -0.145
AGTGAACG: -0.142
TATATAAA: -0.0224
GCCTGGCA: -0.158
GTCAGAAA: -0.205
ACCATCGA: -0.215
TAGGGATA: -0.103

Block 3
Target: Ras GTPase-activating protein-binding protein 1, C-terminal RGG region (G3BP1, Homo sapiens, UniProt Q13283)
Chain of UniProt Q13283 (whole entry, looked up): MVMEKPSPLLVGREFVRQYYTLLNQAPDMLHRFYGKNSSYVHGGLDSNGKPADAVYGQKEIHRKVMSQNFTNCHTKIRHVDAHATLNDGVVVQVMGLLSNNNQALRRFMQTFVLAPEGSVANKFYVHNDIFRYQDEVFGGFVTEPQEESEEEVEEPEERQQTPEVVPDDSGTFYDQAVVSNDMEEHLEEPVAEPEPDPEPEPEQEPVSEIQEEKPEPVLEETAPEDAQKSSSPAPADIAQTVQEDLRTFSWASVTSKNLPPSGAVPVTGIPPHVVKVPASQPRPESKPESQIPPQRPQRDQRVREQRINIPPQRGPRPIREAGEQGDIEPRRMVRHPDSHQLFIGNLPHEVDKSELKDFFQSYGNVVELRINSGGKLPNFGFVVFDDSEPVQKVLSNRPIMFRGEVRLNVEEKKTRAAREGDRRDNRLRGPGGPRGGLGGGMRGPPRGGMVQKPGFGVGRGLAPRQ
Technique: RNA Bind-n-Seq
Molecule type: RNA
Sample: in vitro
Concentration: 1 µM
Setting: whole 134-nt RNA, ends assumed
Together with: 150 mM KCl
Baseline: input library
Reading: higher = stronger binding
Endpoint: log2 enrichment
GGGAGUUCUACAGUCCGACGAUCCUCAAGUCCUGUGCUACACAUCGUAUGUACCGAAUCGGAGGUUUUUGGUUUGGAAAGUAUUAUGUUACGCCGUUCGGAUCUGCACUUCCAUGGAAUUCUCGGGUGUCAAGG: -1.48
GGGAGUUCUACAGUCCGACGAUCCCUGUGCUACACAUCGUAUGUACCGAAUCGGGGUUUUUUGGGGUUUUUUGGUUUUUUGGGGAAAGUAUUAUGUUACGCCGUUCGGAUCUGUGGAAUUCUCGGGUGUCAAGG: -1.2
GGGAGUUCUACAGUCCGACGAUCAGUCCUGUGCUACACAUCGUAUGUACCGAAUCAAACCCCCAAACCCCCAAAUUUAAAAAAGUAUUAUGUUACGCCGUUCGGAUCUGCACUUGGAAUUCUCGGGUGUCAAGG: -0.992
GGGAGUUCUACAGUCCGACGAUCACCAUGCAGGUGGGCAUCUUUGGGAAGUGCGGCAAGGGGGGGAUAGGGAGGGGGGUAACACUUUGGGAACAGGUGGUCCCAGGUCGUUUCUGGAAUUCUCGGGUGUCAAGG: -0.923
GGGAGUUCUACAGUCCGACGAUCUGGCCCUGGUGGCAUGCGGGGAGGAAGAGGUGGCCUCAUGGAUCGUGGUGGUCCCGGUGGAAUGUUCAGAGGUGGCCGUGGUGGAGAAAGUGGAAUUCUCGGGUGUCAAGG: 3.41
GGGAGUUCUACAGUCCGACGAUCUUAUUCUGUGUGACACCUGCCCUCGUGCCUACCACCUCGUCUGCCUUGAUCCUGAGCUUGACCGGGCUCCAGAGGGCAAAUGGAGCUGCCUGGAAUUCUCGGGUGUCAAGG: 0.68
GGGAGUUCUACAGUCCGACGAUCCUCAAGUCCUGUGCUACACAUCGUAUGUACCGAAUCGGUUUGGAGGUUUUUGGAAAGUAUUAUGUUACGCCGUUCGGAUCUGCACUUCCAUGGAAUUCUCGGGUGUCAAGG: -0.915
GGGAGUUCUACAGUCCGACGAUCAAGUCCUGUGCUACACAUCGUAUGUACCGAAUCGGGUUUUUGGGAGGGAAAAAGGGAAAGUAUUAUGUUACGCCGUUCGGAUCUGCACUUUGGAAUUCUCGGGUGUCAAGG: 0.644
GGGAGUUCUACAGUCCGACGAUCUCAAGUCCUGUGCUACACAUCGUAUGUACCGAAUCGGUUUGGGUUUGGUUUGGGGAAAGUAUUAUGUUACGCCGUUCGGAUCUGCACUUCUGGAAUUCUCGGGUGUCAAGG: -1.07
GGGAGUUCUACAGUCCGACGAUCACCAUGCAGGUGGGCAUCUUUGGGAAGUGGGGCAAGGGGGGGAUAGGGAGGGGGGUAACACUUUGGGAACAGGUGGUACCAGGUCGUUUCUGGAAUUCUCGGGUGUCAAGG: 2.69

Block 4
Target: RNA binding protein fox-1 homolog 2, RRM domain, GST-SBP tag (RBFOX2, Homo sapiens, UniProt O43251-10, residues 100-194)
Technique: RNA Bind-n-Seq
Molecule type: RNA
Sample: in vitro
Concentration: 365 nM
Setting: natural RNA segment, single round, ends assumed
Baseline: no-protein control
Reading: higher = stronger binding
Endpoint: RBNS enrichment (R)
Construct (chain): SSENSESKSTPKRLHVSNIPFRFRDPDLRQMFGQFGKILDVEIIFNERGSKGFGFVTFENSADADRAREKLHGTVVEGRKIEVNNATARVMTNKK
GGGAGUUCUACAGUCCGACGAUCGACUGACGUAAGGACCCCCGACCGACCUCAUCUUGUUAAGUUAACGGAGACCCUUCUUGUUGAAGGGGCCUGCUGCUAGUAACCUUUGCAAUGUUCUGCUUUUAAUAUGUUGGAAUUCUCGGGUGCCAA: 1.03
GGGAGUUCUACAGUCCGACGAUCGCCUUCCUGUCAUAUUUUAGCCAAAACAACUGGUUAUAUGCCUCCCUUGCAGCAAGCACUACAAUGUAUGUGAUCGUCAAUGUGAAUAGCUUAGAAUACUGCAAAGGAUAUGGAAUUCUCGGGUGCCAA: 0.497
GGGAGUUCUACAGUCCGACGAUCGGACUACAGGCGCCCACCACCACGCCCGGCUAAUUUUUUGUAUUUUUUAGUAGAGACGGGGUUUCACCAUGUUAGCCAGGAUGGUCUCGAUCUCCUGACCUCGUGAUCCGUGGAAUUCUCGGGUGCCAA: 0.346
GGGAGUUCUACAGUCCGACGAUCUGAAUGUAUAUGUUGUAAUUGAGGCAGAUAUUUGCCUUAAUUGGAAGGAUCUAACUGCUUUACAAAUAUUAAACAAGUGCUUGGGCAUGAUUGGGAGAGGAGGCAGCUUAUGGAAUUCUCGGGUGCCAA: 5.37
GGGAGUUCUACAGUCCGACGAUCCUGUAAAGGCUGCAUCCAUGUUAGUUGGCACAUAAAGGCAAUUAAUUGUAGAAGUUGAAACAUGAUCGCUAUAUUUCAAUGUUUAUUCCCGUUCAACGUACUGCCUCUAAUGGAAUUCUCGGGUGCCAA: 2.12
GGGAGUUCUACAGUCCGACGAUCUAUUUCUUGCUAUGAGAGUAUUUUGUAUGGUAUUAUUUCUUUUUUGUUGUAAGCUAACAAGUGGAGAAACACUUUUUUUUUUCAGAAAUGGUUUGGAUUAUUUAUAGUCCUGGAAUUCUCGGGUGCCAA: 0.634
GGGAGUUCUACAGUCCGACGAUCGAGGACUGGAGAUGAAUGGACAAUAUGAUCAAAGACUCAUUUUUAGGCCUUGAAGAGGCCGAGCUUUCUCCCCCCAAUUGGUGGAGGACAGUCCAGAGAUGAGCAGAAAUUGGAAUUCUCGGGUGCCAA: 0.843
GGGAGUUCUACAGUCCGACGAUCUCAUUCACCCAUUAGGUAAACAUUCCCUUUUAAAUGUUUGUUUGUUUUUUGAGACAGGAUCUCACUCUGUUGCCAGGGCUGUAGUGCAGUGGUGUGAUCAUAGCUCACUGUGGAAUUCUCGGGUGCCAA: 0.394
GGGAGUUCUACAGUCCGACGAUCGUAAUUGGGAUUCCAACUAGAUAGUCAUUGGUGUGACCAUAAUAAAAACAAAAGCUAAAAUAAAAGCAUCAGAUUUAGACUGGCGCUGUGCCCUCUACCACUAUAUGCCAUGGAAUUCUCGGGUGCCAA: 0.635
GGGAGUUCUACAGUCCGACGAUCGAAUUAGGAGAUGUUUUGGUAAUUAUUUCAUAUAUUGUUGUUUAUUGAGAAAAGGUUGUAGGAUGUGUCACAAGAGACUUUUGACAAUUCUGAGGAACCUUGUGUCCAGUUGGAAUUCUCGGGUGCCAA: 0.463
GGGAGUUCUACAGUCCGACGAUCUUACCUCGUGCAUUGUAUAAUUUGAUGUAAAAGAAAUAGUUACCAAUGCUAGCUUGUGUGGUCUUCCAUGAUUUAUUUGUGUUUUGUGAAUUUUCAAUUUAUGGUGAUGAUGGAAUUCUCGGGUGCCAA: 1.18
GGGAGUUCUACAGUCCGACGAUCAAUACAUAAAGAUAAAUUUAUUUUCACACAGUCCACAAGGGGUAUAUCUUGUAGUUUUCAGAAAAGCCUUUGGAAAUCUGGAUCAGAAAAUAGAUACCAUGGUUUGUGCAUGGAAUUCUCGGGUGCCAA: 1.06

For quick reference, copied from above (block 2):
GTCAGAAA: -0.205
AGTGAACG: -0.142
GCCTGGCA: -0.158
GGATCGAC: -0.0871
ATTGGCTC: -0.122
AAGGACTC: -0.0124
ATTTGGTA: -0.076
CCAAAGCC: -0.123
TAATCAAA: -0.00885
CACGCGCA: 0.305
